Results pooled from the literature.
A part holds a random share of what one study measured. Substitutions count along the parent as printed.

Block 1 — target: CCNB1, cyclin fold, Cln2 fusion (human); method: yeast growth competition, sequencing; sample: yeast; setting: weak parent motif; relative to: not given; direction: higher = stronger binding
Parent: CDKN1A docking peptide (human); SKACRRLFGPVDS
Variant | normalised enrichment score
SKAKRRLFGPVDS [C4K] | -0.0489
SKACVRLFGPVDS [R5V] | 0.201
SKACRRLAGPVDS [F8A] | -0.123

Block 2 — method: RNA Bind-n-Seq; molecule type: RNA; sample: in vitro; tested at: 200 nM; setting: whole 134-nt RNA, ends assumed; added: 150 mM KCl; relative to: input library; direction: higher = stronger binding
Target: Fragile X messenger ribonucleoprotein 1, C-terminal low-complexity region (Fmr1, Mus musculus, UniProt P35922)
Sequence | log2 enrichment
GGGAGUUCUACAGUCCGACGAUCUGGCCCUGGUGGCAUGCGGGGAGGAAGAGGUGGCCUCAUGGAUCGUGGUGGUCCCGGUGGAAUGUUCAGAUGUGGCCGUGGUGGAGACAGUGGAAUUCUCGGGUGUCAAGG | 0.216
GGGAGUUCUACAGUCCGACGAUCUUGAACAUCUGCAGGAAAAGAGGCGAGAGGGCACUUUGAGAGUGGAUACCUACACUCUAGUGCAGCCUGAGGCAGAAGACCAUGUUGAGAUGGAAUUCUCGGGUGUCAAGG | -1.18
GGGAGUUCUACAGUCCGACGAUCGUCCUGUGCUACACAUCGUAUGUACCGAAUCGGGGUUUUUGGUUUUUGGGUUUUUGGGAAAGUAUUAUGUUACGCCGUUCGGAUCUGCACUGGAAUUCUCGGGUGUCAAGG | -0.318
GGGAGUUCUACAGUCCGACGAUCGUCCUGUGCUACACAUCGUAUGUACCGAAUCGGGUUUGGGUUUUUUUGGGUUUUUGGGAAAGUAUUAUGUUACGCCGUUCGGAUCUGCACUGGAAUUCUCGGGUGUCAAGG | 0.454
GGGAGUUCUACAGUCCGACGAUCUCCUCAAGUCCUGUGCUACACAUCGUAUGUACCGAAUCGGUGGGUGGGUGGAAAGUAUUAUGUUACGCCGUUCGGAUCUGCACUUCCAGCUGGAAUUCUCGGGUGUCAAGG | 0.0996
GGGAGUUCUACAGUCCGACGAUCUAACUUUAGAGGAGGUUCUGAUGGAUAUGGCAGUGGACGUGGAUUUGGGGAUGGCUAUAAUGGGUAUGGAGGAGGACCUGGAGGUGGCAAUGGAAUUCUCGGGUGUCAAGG | 0.452
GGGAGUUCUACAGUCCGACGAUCUGGGAGGUGGAUUGUGUUUAUUUUUUUAGCUCAUUUCCAGGGGUGGGAAUUUUUUUUUAAUAUGUGUCAUGAAUAAAGUUGUUUUUGAAAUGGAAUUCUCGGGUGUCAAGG | 0.0101

Block 3 — method: protein-binding microarray; molecule type: double-stranded DNA, one strand shown; sample: in vitro; tested at: not given; direction: higher = stronger binding
Target: Protein max, full length (MAX, Homo sapiens, UniProt P61244-2, residues 1-151)
Setting: k-mer, scored over probes, only values ≥0.25
Sequence | E-score
ACACGAGC | 0.328
TGTGCACA | 0.266
GCTGTCAC | 0.28
CATGAGCC | 0.27
CATGTGTC | 0.451
CCCCACGC | 0.402
CATGCTGA | 0.433
ACGTGTCT | 0.436
CATGGTAA | 0.311

Single results of other studies
Substance | target | test | test system | conditions | how to read | quantity | result
PhoQ, residues 284 288 289 292 302 303 TNSAEL | PhoP, residues 12 14 15 18 19 NHFRA (Escherichia coli, UniProt P23836) | Sort-seq, measured: YFP reporter | E. coli | PhoQ-PhoP variant library, added: 10 µM Mg2+ | relative to: high Mg2+ state, higher = stronger signaling | fold induction | 3.08
